Measurements gathered from unrelated publications.
A part holds a random share of what one study measured. Positions count from the first letter of the parent shown.

Sample 1
Target: HLA class I histocompatibility antigen, A alpha chain, allele A*25:01 (Homo sapiens, UniProt P04439)
Read-out: peptide-MHC binding
Form: peptide
Tested at: concentration not given
Molecule	binding
LYVAGVPEL	inactive
RIYDPLWFQ	inactive
NSTHNTPVY	inactive
DPPEPLVRI	inactive
FPLWNTEKI	inactive
VFTSRIQVI	inactive
FLNPVIYTF	inactive
MPIAAAIGT	inactive

Sample 2
Target: CCND3, cyclin fold, Cln2 fusion (human)
Technique: yeast growth competition, sequencing
Matrix: yeast
Setting: weak parent motif
Reference: not given
Reading: higher = stronger binding
Starting sequence: viral docking peptide; KGVKRKLFAEDSS; partner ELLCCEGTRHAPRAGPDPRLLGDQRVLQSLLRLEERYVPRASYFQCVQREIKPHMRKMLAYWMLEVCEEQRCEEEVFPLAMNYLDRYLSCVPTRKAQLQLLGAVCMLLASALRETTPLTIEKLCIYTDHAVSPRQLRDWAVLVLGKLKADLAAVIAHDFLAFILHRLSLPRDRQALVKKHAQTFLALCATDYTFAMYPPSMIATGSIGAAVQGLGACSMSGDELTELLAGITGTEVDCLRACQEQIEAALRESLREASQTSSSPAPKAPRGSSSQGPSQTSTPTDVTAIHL
Change	normalised enrichment score
KGVKRKLFTEDSS [A9T]	0.0099
KGVKRKLFAVDSS [E10V]	0.171
KGVKRKLFAEQSS [D11Q]	-0.465
KGVKKKLFAEDSS [R5K]	0.516
KGVQRKLFAEDSS [K4Q]	-0.0154
KGVKRKLFAEDMS [S12M]	-0.261
KGVKRKLFREDSS [A9R]	0.567
KGAKRKLFAEDSS [V3A]	0.378

Further values, each from its own experiment
Structure (SMILES)	tested on	assay	test system	conditions	how to read	endpoint	result
CCN(CCO)CCCOc1ccc2c(Nc3cc(CC(=O)Nc4cccc(F)c4)[nH]n3)ncnc2c1	HuT78	CCK-8		2 µM, 48 h	reference: untreated	viability	114%
COc1ccc(-c2c(Nc3ccccn3)[nH]c3c(C4=CCCCC4)c(-c4ccccc4)nn3c2=O)cc1			patients with advanced malignancies	oral, dose not given, treatment-emergent adverse events		platelet count decreased incidence	10%
CC(Cc1ccccc1)NCCC(c1ccccc1)c1ccccc1 (stereo not shown)	mouse MPNST tumor cells	high-content nuclear imaging, measured: cell number		10 µM, 12 h, mean of 2 replicates	reference: plate mean, higher = more cells	nuclei count	-4.86 z-score

For quick reference, copied from above (sample 2):
Change	normalised enrichment score
KGAKRKLFAEDSS [V3A]	0.378
KGVKRKLFAVDSS [E10V]	0.171
KGVQRKLFAEDSS [K4Q]	-0.0154
